# Measurements pooled from the literature.
# A part holds a random share of what one study measured. Positions count from the first letter of the parent shown.

# Study 1
# Target: RNA binding protein fox-1 homolog 2, RRM domain, GST-SBP tag (RBFOX2, Homo sapiens, UniProt O43251-10, residues 100-194)
# Technique: RNA Bind-n-Seq
# Form: RNA
# Sample: in vitro
# Concentration: 365 nM
# Setting: natural RNA segment, single round, ends assumed
# Relative to: no-protein control
# Reading: higher = stronger binding
# Shared flanks, not repeated: GGGAGUUCUACAGUCCGACGAUC … UGGAAUUCUCGGGUGCCAA
# Target sequence (chain): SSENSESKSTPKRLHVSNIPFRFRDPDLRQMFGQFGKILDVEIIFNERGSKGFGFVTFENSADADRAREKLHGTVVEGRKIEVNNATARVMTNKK
Sequence,RBNS enrichment (R)
AGUAUGCUUUUAGUCUAAGAAAAGCACAGAUGGAGCAAUACUUUCCUUCUUUGAAGAGAAUCCCAAAAGUUAGUUCAUCUUAAAGUGCAAUAUUGUUUAAUCUUAAAACU,0.519
UUAAGGGGGUCUGCAUUUUAAAUGCAGAUGUGAAGCACUUGUAUAUAAAUAAAAGUAAAUACUAUAAUACAAAGUUCCUUCUGAAAUAAAAGUAGAUCUGGUAAAAAUGU,0.652
CAAUGUUAAGUGUCUGCUUUAUGGGCAUAUAUAAAAGUAGACACAUUUCAUUUGUUAAUUUAGUUGUGUGUGUGUGUUAAAAGGAGCUAAUGCUUAUUCUGUUAAUGUAA,0.602
AUAGGCCCCUUGGACCGUGGGGAUGGCGGCCCUGAGAUUCUGUCAGUGGGACCACCCUGGGCCUCCUUUCUACCUCCACUCAGCACCCUGUUGGCCAAGGAGAAUUUCUG,0.484
UUACCGUGGUCCUCCGUUGUGAGUGUUGCAGGGCUAUAGGAAGACAAAGCCUGGGGUACCCGCAUCUGGUUUGGAACCCUGAGUUUUGUUGUUCAGUCAGCAGCCCUAGU,1.15
UCUUAAACGGGUGUCAGCAAGAAGAAAAACUAACAAAAGACAGAAGGCCUGACUUUGGGGGGAGAGGGCAAGGGGUUCCUCUGGAUUGCAGACCACAUCGCACGGACCCC,0.861
GGGGCUUCUGUGAGAGGCAGAGGGGGACCCUCACCAAAUCUUGGUGGAAGAGCCCAGGGGCUGGUCCCAGAACAGGCAGUCUCACAAGCACGCAGCACACUGGAGUGGAC,6.17
UGGGCGCAUUCUGUCUGGAGCUCCCAGAAGGAGCUGUGUGCUGCUGGAGAGGAGGCUAAUUGUUGGUUCAGACUCCUCCGCUUGGGUAAAAGACUCCCCUUAUCACUCUC,0.589
CCUAGUGUGAUGAAGACCUUGCCCUCUUCAUUUCCCUCAACUCCCUACUCCUUUUAUGUAUGGAUGGGGUCUAACCAAGUGCACCCACUCCCCAAUAAAUCGACUCUUCC,0.41
UUUAACAAGGAUAUUUAUGUAAUAAGAAACUUUGCCUUAGGCAGGUGUUGGCCAGAAAAGUCCAGAUUCCUCUGGGAUCCCACCCUGGCCUCUCCUGGAACUCUGAACCU,0.177
CUAGCUAUCACUUCCUGAGUGUCUCAUGUAGCCACUCAGGCUCCCAGGAGUUUCCUGAGGUAGGUUAGUAGGGUCACGUGAAUGCCUCACUAUGACAUGACUUGAGUCCA,0.278
GGCAAGGUAGCGUUCCCCAAUCUGAAUACCUGCAGGCUCCCACAUGAGGGAGAGGGCAGACUCAGGUGGGAAGAUGUGCCAUGCGUAAGGCAUCAACGUGUAUCUGUGGG,0.364

# Study 2
# Target: CREB5, bZIP domain (human)
# Technique: DHFR protein complementation
# Sample: yeast
# Setting: single substitutions, most at no-binding floor
# Relative to: wild-type JUN-FOS pair
# Reading: higher = stronger binding
# Starting sequence: JUN, bZIP domain (human); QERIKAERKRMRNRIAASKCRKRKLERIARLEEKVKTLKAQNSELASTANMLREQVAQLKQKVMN; partner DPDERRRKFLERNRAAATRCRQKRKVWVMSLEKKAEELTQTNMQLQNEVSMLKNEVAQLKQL
Change,binding fitness [natural log]
K39N,-0.439
K39I,-0.406
A46W,-0.647
T37H,-0.17
L45P,-1.35
R30I,-0.36
L45N,-1.35
L38Q,-1.39
E54L,-0.539
N42A,-0.925
N42W,-1.07
T48D,-0.683
Q55W,-0.99
N42M,-1.01
Q55S,-0.761
E44I,-0.507
E32D,-0.657
L52F,-1.07
A46P,-1.28
V35Y,-0.993
L52M,-1.01
V35I,-0.0735
I28P,-0.822
A46T,-0.16
L31G,-1.29

# Study 3
# Target: CCNB2, cyclin fold, Cln2 fusion (human)
# Technique: yeast growth competition, sequencing
# Sample: yeast
# Setting: weak parent motif
# Relative to: not given
# Reading: higher = stronger binding
# Starting sequence: GMNC docking peptide (human); KNAKRNLSSEFAN
Change,normalised enrichment score
KNWKRNLSSEFAN [A3W],0.529
KNAKRNLSSEWAN [F11W],0.386
KNAQRNLSSEFAN [K4Q],0.147
KNAKRNLYSEFAN [S8Y],1.56
KNAKRQLSSEFAN [N6Q],0.385
KNAKRNLSEEFAN [S9E],-0.172
KNAKRNLSGEFAN [S9G],0.154
KNAKRNLSSEFCN [A12C],0.311
KNAKRNLFSEFAN [S8F],0.869
KNAKRNLSLEFAN [S9L],0.199
KNAKRMLSSEFAN [N6M],0.579
KNAKRNHSSEFAN [L7H],0.512
KNAKRNLSSELAN [F11L],0.267
KNAKRNLSSEFFN [A12F],0.498
KEAKRNLSSEFAN [N2E],0.69
KNALRNLSSEFAN [K4L],0.464
KNAKRNLSSESAN [F11S],0.526

# Study 4
# Target: Sal-like protein 4, full length isoform A (SALL4, Homo sapiens, UniProt Q9UJQ4, residues 1-1053)
# UniProt Q9UJQ4, sequence (whole entry, looked up): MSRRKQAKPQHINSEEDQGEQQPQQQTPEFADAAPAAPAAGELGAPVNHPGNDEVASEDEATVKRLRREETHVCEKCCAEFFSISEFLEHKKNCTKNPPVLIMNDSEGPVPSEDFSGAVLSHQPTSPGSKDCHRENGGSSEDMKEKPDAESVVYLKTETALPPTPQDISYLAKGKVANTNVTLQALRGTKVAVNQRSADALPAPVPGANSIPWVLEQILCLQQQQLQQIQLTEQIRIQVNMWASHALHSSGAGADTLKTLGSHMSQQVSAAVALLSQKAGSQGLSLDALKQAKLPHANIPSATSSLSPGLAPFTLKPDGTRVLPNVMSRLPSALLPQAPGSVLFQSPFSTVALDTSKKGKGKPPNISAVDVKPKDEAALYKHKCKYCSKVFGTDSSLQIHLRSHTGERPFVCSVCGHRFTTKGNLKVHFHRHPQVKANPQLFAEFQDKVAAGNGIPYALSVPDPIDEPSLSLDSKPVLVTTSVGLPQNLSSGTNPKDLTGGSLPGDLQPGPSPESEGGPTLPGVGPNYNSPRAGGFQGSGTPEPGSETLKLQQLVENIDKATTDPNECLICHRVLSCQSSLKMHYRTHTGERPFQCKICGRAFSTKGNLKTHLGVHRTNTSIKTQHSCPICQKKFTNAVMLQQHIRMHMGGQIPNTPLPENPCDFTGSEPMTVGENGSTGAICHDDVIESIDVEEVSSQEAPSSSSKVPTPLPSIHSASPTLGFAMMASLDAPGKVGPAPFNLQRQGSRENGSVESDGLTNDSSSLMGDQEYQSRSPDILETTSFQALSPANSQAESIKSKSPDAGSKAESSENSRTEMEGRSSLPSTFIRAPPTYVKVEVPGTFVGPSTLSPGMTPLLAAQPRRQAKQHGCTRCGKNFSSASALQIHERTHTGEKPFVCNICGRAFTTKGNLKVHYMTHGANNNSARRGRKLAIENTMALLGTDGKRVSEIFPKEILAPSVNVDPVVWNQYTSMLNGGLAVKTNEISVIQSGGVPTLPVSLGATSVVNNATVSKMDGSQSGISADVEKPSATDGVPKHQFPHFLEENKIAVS
# Technique: universal PBM
# Form: double-stranded DNA, one strand shown
# Sample: in vitro
# Concentration: 600 nM
# Setting: 8-mer, flanks averaged, mean of replicates
# Reading: higher = stronger binding
Sequence,E-score
ACGGACCT,-0.306
AACTTCCG,-0.0563
AATAAAGC,0.267
ATGGATTA,0.156
CCTATGTC,0.0203
ATCAATCC,0.087
AAACACTT,0.11
ACTTAATA,0.353
AAGTTGAA,0.0712
CAGCATGA,-0.0732
GCTGTAGA,-0.0111
GAGATTCC,-0.183
TCATGAAA,0.147
GTGGACGA,-0.149
AGTACAGA,0.152
GATGATGA,0.0471
CAGCACGC,-0.18
CTCACGAC,-0.183
ACACCTCG,-0.0956
GATGATAA,0.215
CGCTGGAA,-0.222
CATGAGGC,-0.262
TCAACAAA,0.19
CGCCTAAA,-0.0855
CATAGAAC,-0.151

# Study 5
# Target: ABI1, truncated, D143A, DHFR fusion (Arabidopsis thaliana, UniProt P49597)
# Technique: DHFR PCA, dose-response
# Sample: yeast
# Setting: Hill fit, mean, not affinity
# Added: (+)-ABA, dose series
# Reading: lower = more sensitive
# Starting sequence: PYL1, truncated, DHFR fusion (Arabidopsis thaliana, UniProt Q8VZS8); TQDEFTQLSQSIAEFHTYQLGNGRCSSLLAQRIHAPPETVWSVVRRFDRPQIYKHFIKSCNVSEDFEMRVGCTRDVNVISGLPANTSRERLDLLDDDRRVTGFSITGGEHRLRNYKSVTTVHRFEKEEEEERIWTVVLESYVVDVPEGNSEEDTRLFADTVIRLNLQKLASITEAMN
Change,ABA EC50 [µM]
C72E,2.52
D3S,3.46
A35I,219
I12T,50.3
E127Y,4.16
S63W,38.6
E64I,7.48
R123N,2.22
D144H,85
L91W,125
G102R,100
G148Q,14.3
T135A,15
I12L,15
K116H,5.31
S171Q,1.29
L29E,460
E174Y,35.7

# Study 6
# Target: OGT, full length, His-tagged (human)
# Technique: phage display, sequencing
# Sample: in vitro
# Concentration: 1 µg OGT
# Setting: single substitutions, 15-mer displayed peptide, unchanged parent 16.7
# Relative to: input library
# Reading: higher = stronger binding
# Starting sequence: peptide; NSEYMPQYQIIFAHQ
Change,fold enrichment [fold]
NSEYMPQYQIIEAHQ [F12E],0.71
NSEYMPQYQIPFAHQ [I11P],2.31
NYEYMPQYQIIFAHQ [S2Y],15.1
NSEYWPQYQIIFAHQ [M5W],11.5
NMEYMPQYQIIFAHQ [S2M],12.3
NSEYMPQYQIIFAMQ [H14M],8.55
NSEYMPQYQIIFAHN [Q15N],15.7
NSEYMPKYQIIFAHQ [Q7K],18.2
NSEYMPQYQIAFAHQ [I11A],0.945
NSEYMPQYFIIFAHQ [Q9F],4.08
KSEYMPQYQIIFAHQ [N1K],12.9
NSEDMPQYQIIFAHQ [Y4D],0.767
NSEYMPYYQIIFAHQ [Q7Y],7.11
NSEYMPPYQIIFAHQ [Q7P],0.742
NSEYMPQYQIIFSHQ [A13S],23.7
NSEYMPQYQIISAHQ [F12S],1.5
NSEYMPQYQIIVAHQ [F12V],6.47
NSEYMPQYQSIFAHQ [I10S],0.385

# Mixed results
Molecule,target,assay,test system,conditions,how to read,quantity,result
"PhoQ, residues 284 288 289 292 302 303 ALVSVA","PhoP, residues 12 14 15 18 19 NHFIF (Escherichia coli, UniProt P23836)","Sort-seq, measured: YFP reporter",E. coli,"PhoQ-PhoP variant library, added: 10 µM Mg2+","relative to: high Mg2+ state, higher = stronger signaling",fold induction,5.33

# Repeated from above (study 2):
Change,binding fitness [natural log]
L38Q,-1.39
E54L,-0.539
N42A,-0.925
N42W,-1.07
T48D,-0.683
Q55W,-0.99
N42M,-1.01
Q55S,-0.761
E44I,-0.507
E32D,-0.657
L52F,-1.07
A46P,-1.28
V35Y,-0.993
L52M,-1.01
V35I,-0.0735
